Measurements from different studies.
Several values in a cell are separate wells, animals, samples, runs or records. Numbers after ± are the reported error.

Compound	test	system	setting	endpoint	value
O=C(O)CCCOc1ccc(F)cc1-c1cc(-c2ccccc2C(F)(F)F)n(-c2ccccc2)n1	–	male Crl:CD(SD) rats, heart	intravenous, 25 µg/kg, 14 d	relative organ weight	0.33 ± 0.03 g%
C[C@@H]1OC(=O)NN=C1c1ccc(-c2ccc(F)cc2)c(C(F)(F)F)c1	phase I trial, measured: Anaemia all grades	human patients	20 mg loading then 1 mg daily	patients with adverse event	100%
C=CC(=O)Nc1cc(Nc2nccc(Nc3cc(Cl)c(F)cc3C(C)(C)O)n2)c(OC)cc1N1CC[C@@H](N(C)C)C1	–	human patients	oral, 100 mg, treatment-emergent adverse events	patients with pneumonia	11.1%
COc1ccc2c(c1)CN(C(=O)CCN1CCC(Cc3ccccc3)CC1)CC[S@@+]2[O-]	–	female Beagle dogs, chronic AV block, plasma	intravenous, 1 mg/kg, end of 10 min infusion	unbound plasma concentration	550 ± 190 nM
O=C(Nc1ccccc1)C1CCN(C(=O)Oc2cccnc2)CC1	adverse event reporting	healthy women	oral, 20 mg, 7 days	subjects with chest discomfort	0%
CC(C)C(=O)OC[C@H]1O[C@@H](n2ccc(NO)nc2=O)[C@H](O)[C@@H]1O	–	rat fetus dialysate	5 ng/mL, low concentration, three cycles, with: NHC 25 ng/mL	freeze-thaw stability	101 ± 1.29%
O=C1Nc2cc3[nH]nc(-c4ccncc4)c3cc2CN1Cc1ccccc1	CTCAE v4.03	advanced solid tumour patients	intravenous, 4.8 mg/kg, schedules 1/2	patients with back pain	0%
C=CC(=O)N1CC[C@H](n2nc(C#Cc3cc(OC)cc(OC)c3)c3c(N)ncnc32)C1	–	patients with advanced solid tumours	oral, dose not given, Stomatitis, any grade, QD, with: lanthanum carbonate hydrate	adverse drug reaction incidence	8.3%
C[C@]1(O)C[C@@](N)(c2ccc(-c3nc4n(c3-c3ccccc3)COc3ccncc3-4)cc2)C1	–	human, advanced or metastatic solid tumours	24 mg intermittent, phase I dose escalation	patients with Stomatitis TEAE	0%
C[C@@H](NC(=O)N1C(=O)[C@H](Cc2ccnc(N)c2)[C@H]1C(=O)O)C1CCCCC1	–	healthy adult Chinese volunteers	continuous intravenous infusion, 0.3 mg/kg/h, 5-day infusion, CTCAE 5.0 grading	incidence of elevated creatine phosphokinase	12.5%
CCCC1CCC(C2CCC(c3ccc(F)c(F)c3)CC2)CC1 (stereo not drawn)	–	human mother-newborn pairs, female fetuses, cord serum	–	mean serum concentration	0.27 ng/mL
Cn1ncc(-c2nc(N[C@H]3CC[C@H](N)CC3)ncc2Cl)c1CC1CC1	measured: hypokalemia any grade	human patients phase I	dose not given	adverse event incidence	53%
Clc1ccc(-c2ccccc2)cc1	–	Sprague-Dawley rats, female, serum	inhalation, 23 µg/rat, 0 h after exposure	gamma-glutamyltransferase	0 U/L
CN1CC[C@@H](c2c(O)cc(O)c3c(=O)cc(-c4ccc(C(F)(F)F)cc4Cl)oc23)[C@@H]1CO	measured: Hypotension	B-cell malignancies or AML	oral, 100 mg, continuous dosing	patients with adverse event	12.5%
COc1cc2c(Oc3ccc4[nH]c(C)cc4c3F)ccnc2cc1OCC1(N)CC1	–	paediatric recurrent refractory sarcoma	8 mg	grade 1 or 2 Fever	0%
CC(=O)c1c(C)c2cnc(Nc3ccc(C4CCN(CCS(C)(=O)=O)CC4)cn3)nc2n(C2CCCC2)c1=O	–	HR+/HER2- advanced breast cancer patients	oral, dose not given	patients with any TRAE	94.7%
CN1CCN(S(=O)(=O)c2cc([N+](=O)[O-])ccc2N(CCOS(C)(=O)=O)CCOS(C)(=O)=O)CC1	–	naive NSG mice, plasma	intraperitoneal, 25 mg/kg	apparent clearance CL/F	7.48 (mg/kg)/(µmol/L)/h
[O-][S+]1CCc2nc(N3CCC(c4ncc(Cl)cn4)CC3)nc(NC3(CO)CCC3)c21 (stereo not drawn)	measured: oral hypoaesthesia	healthy male humans	6 mg twice daily	adverse event incidence	0%

Compound	test	system	setting	endpoint	value
CC(C)[C@@H]1NC(=O)CNC(=O)[C@H](CC(N)=O)NC(=O)[C@H](CCCNC(=N)N)NC(=O)[C@H](Cc2ccc(O)cc2)NC(=O)[C@H](C(C)C)NC(=O)[C@@H](NC(=O)[C@@H](NC(=O)[C@H](CC(N)=O)NC(=O)[C@H](Cc2c[nH]c3ccccc23)NC(=O)[C@H](C)NC(=O)[C@H](Cc2ccccc2)NC(=O)CN)C(C)C)CSSC[C@@H](C(=O)N[C@@H](Cc2cnc[nH]2)C(=O)N[C@@H](CCCNC(=N)N)C(=O)N[C@@H](CCCNC(=N)N)C(=O)N[C@@H](C)C(=O)N[C@@H](CC(N)=O)C(N)=O)NC(=O)[C@H](C(C)C)NC(=O)[C@H](CCCNC(=N)N)NC1=O	–	ICR mice, serum	intraductal mammary, 5 mg/kg, day 5	total protein	54 ± 1.11 g/L
NC(=O)[C@H]1CCN(c2ncnc(N)c2F)C[C@@H]1N1CCC[C@@H](Nc2cc(Cl)cc(C(F)(F)F)c2)C1=O	–	B-cell malignancy patients	oral, 246 mg twice daily, dose	grade ≥3 leukopenia	0%
COc1ncccc1-c1cnn2ccc(N3CCN(C(=O)OC(C)C)CC3)nc12	–	rat, CCI mechanical allodynia model, brain	oral, 3 mg/kg, 240 min	drug concentration	1100 nM
Cn1nc(NS(C)(=O)=O)c2c(Cl)ccc(-n3c([C@H](Cc4cc(F)cc(F)c4)NC(=O)Cn4nc(C(F)F)c5c4C(F)(F)[C@@H]4C[C@H]54)nc4nc(OCCC(F)(F)F)ccc4c3=O)c21	measured: blood triglycerides increased	human	25 mg, powder in bottle	drug-related adverse events	0%
CO[C@H]1C[C@@H]2CC[C@@H](C)[C@@](O)(O2)C(=O)C(=O)N2CCCC[C@H]2C(=O)O[C@H]([C@H](C)C[C@@H]2CC[C@@H](OC(=O)NCCOCCOCCOCCOCCOCCOCCOCCOCCC(=O)N3CCc4cc(Cn5nc(-c6ccc7oc(N)nc7c6)c6c(N)ncnc65)ccc4C3)[C@H](OC)C2)C[C@@H](O)[C@H](C)/C=C(\C)[C@@H](O)[C@@H](OC)C(=O)[C@H](C)C[C@H](C)/C=C/C=C/C=C/1C	–	patients with advanced solid tumours	intravenous, 10 mg weekly, any grade	AE leading to discontinuation	0%
Brc1ccc(Oc2cc(Br)c(Br)cc2Br)c(Br)c1	–	whole cow milk	2000 nM nominal	dose fraction in skim milk	9.29%
COc1ncnn2ccc(-c3cnc4nc(C)n(Cc5nnc([C@@H](C)F)o5)c4c3)c12	–	human patients	oral, dose not given, all-grade adverse drug reaction	incidence of Fatigue	14.3%
CCN1CCN(Cc2ccc(Nc3ncc(F)c(-c4cc(F)c5nc6n(c5c4)[C@H](C)CCC6)n3)nc2)CC1	–	advanced solid tumour patients	dose not given, Phase Ia monotherapy	Neutropenia incidence, any grade	58.3%
Oc1ccc(CSCc2ccc(O)cc2)cc1	–	ICR mice male	oral, 1500 mg/kg, day 15, acute toxicity	body weight	36.9 ± 2.69 g
CCc1ccc(CC/C=C/c2ccc3c(c2)C(=O)CC3)cc1	–	Sprague-Dawley rat, male, blood	oral, 30 mg/kg/day, 14 days	MCV	64.8 fL
CC(=O)NCC(=O)NCC(=O)N[C@H](C(=O)N[C@@H](Cc1ccc(O)cc1)C(=O)N[C@@H](CO)C(=O)N[C@H]1CSSC[C@@H](C(=O)N[C@@H](CCCNC(=N)N)C(=O)N2CCC[C@H]2C(=O)N[C@@H](CCC(N)=O)C(=O)N[C@@H](CCCNC(=N)N)C(=O)NCC(=O)NCCC(=O)N[C@@H](CCCCNC(=O)CN(CC(=O)NCCCC[C@H](NC(=O)CCNC(=O)CNC(=O)[C@H](CCCNC(=N)N)NC(=O)[C@H](CCC(N)=O)NC(=O)[C@@H]2CCCN2C(=O)[C@H](CCCNC(=N)N)NC(=O)[C@@H]2CSSC[C@H](NC(=O)[C@H](CO)NC(=O)[C@H](Cc3ccc(O)cc3)NC(=O)[C@@H](NC(=O)CNC(=O)CNC(C)=O)[C@@H](C)O)C(=O)N[C@@H](Cc3c[nH]cn3)C(=O)N[C@@H](Cc3ccccc3)C(=O)NCC(=O)N[C@@H](C)C(=O)N[C@@H](CC(C)C)C(=O)N[C@@H]([C@@H](C)O)C(=O)N[C@@H](Cc3c[nH]c4ccccc34)C(=O)N[C@@H](C(C)C)C(=O)N2)C(N)=O)C(=O)CCN)C(N)=O)NC(=O)[C@H](C(C)C)NC(=O)[C@H](Cc2c[nH]c3ccccc23)NC(=O)[C@H]([C@@H](C)O)NC(=O)[C@H](CC(C)C)NC(=O)[C@H](C)NC(=O)CNC(=O)[C@H](Cc2ccccc2)NC(=O)[C@H](Cc2c[nH]cn2)NC1=O)[C@@H](C)O	MSD immunoassay	BALB/c mice, healthy female, serum	subcutaneous, 0.08 mg/kg, 8 h, LLOQ 2.0 ng/mL	serum concentration	not detected
CC(C)c1nc(N(C)S(C)(=O)=O)nc(-c2ccc(F)cc2)c1/C=C/[C@@H](O)C[C@@H](O)CC(=O)O	–	healthy human subjects	oral, dose not given, study CL-0537 safety set	incidence of Constipation	3.6%
C[C@]1(CO)Cc2ncn(-c3ccc(C#N)c(Cl)c3)c2C(=O)O1	–	human, plasma	0.7 mg single dose, geometric mean	half-life	4.5 h
CC(C)C[C@H](NC(=O)[C@H](C)NC(=O)[C@@H](NC(=O)[C@H](CCCNC(=N)N)NC(=O)[C@H](CC(C)C)NC(=O)[C@H](Cc1c[nH]c2ccccc12)NC(=O)[C@@H]1CCCN1C(=O)[C@@H](N)CCCCN)C(C)C)C(=O)N[C@@H](CS)C(=O)N1CCC[C@H]1C(=O)NCC(=O)O	–	sheep red blood cells	4 µM, 1 h, 37 °C	hemolysis	0.096% and 1.01% and 0.78%
Clc1cc2c(cc1Cl)Oc1c(ccc(Cl)c1Cl)O2	ultrafiltration	cow milk whey	2000 nM nominal in whole milk	dose fraction in permeate	13.8%
c1cc2ccc3cccc4ccc(c1)c2c34	metabolism	pooled human liver microsomes	pH 7.4	Vmax	88.5 pmol/min/mg
C[C@@H]1NC(=O)[C@H](CCCCNC(=O)CO/N=C/C(=O)NCCCC[C@@H]2NC(=O)[C@@H](Cc3ccccc3)NC(=O)[C@H](CC(=O)O)NC(=O)CNC(=O)[C@H](CCCNC(=N)N)NC2=O)NC(=O)CNC(=O)[C@@H]2CCCN2C(=O)[C@H](CCCCNC(=O)CO/N=C/C(=O)NCCCC[C@@H]2NC(=O)[C@@H](Cc3ccccc3)NC(=O)[C@H](CC(=O)O)NC(=O)CNC(=O)[C@H](CCCNC(=N)N)NC2=O)NC(=O)[C@H](CCCCNC(=O)CCNC(=O)CCNC(=O)CCNC(=O)[C@H](CCCCN)NC(=O)[C@H](Cc2ccccc2)NC(=O)CNC(=O)CN2CCCNCCNCCCNCC2)NC(=O)[C@H](CCCCNC(=O)CO/N=C/C(=O)NCCCC[C@@H]2NC(=O)[C@@H](Cc3ccccc3)NC(=O)[C@H](CC(=O)O)NC(=O)CNC(=O)[C@H](CCCNC(=N)N)NC2=O)NC(=O)CNC(=O)[C@@H]2CCCN2C(=O)[C@H](CCCCNC(=O)CO/N=C/C(=O)NCCCC[C@@H]2NC(=O)[C@@H](Cc3ccccc3)NC(=O)[C@H](CC(=O)O)NC(=O)CNC(=O)[C@H](CCCNC(=N)N)NC2=O)NC1=O [copper-64 labelled]	–	normal mice, spleen	intravenous, 0.74 MBq, 24 h post-injection	tissue uptake	2.35 ± 0.25 %ID/g
CCCCCCCCCCCCCCCC(=O)N[C@@H](CCC(=O)NCCCC[C@H](NC(=O)[C@H](CC(=O)O)NC(=O)[C@H](CO)NC(=O)[C@@H](NC(=O)[C@H](Cc1ccccc1)NC(=O)[C@@H](NC(=O)CNC(=O)[C@H](CCC(N)=O)NC(=O)[C@H](CO)NC(=O)[C@@H](N)Cc1c[nH]cn1)[C@@H](C)O)[C@@H](C)O)C(=O)N[C@@H](CO)C(=O)N[C@@H](CCC(=O)O)C(=O)N[C@@H](Cc1ccc(O)cc1)C(=O)N[C@@H](CC(C)C)C(=O)N[C@@H](CC(=O)O)C(=O)N[C@@H](CO)C(=O)N[C@@H](CCC(=O)O)C(=O)N[C@@H](CCCNC(=N)N)C(=O)N[C@@H](C)C(=O)N[C@@H](CCCNC(=N)N)C(=O)N[C@@H](CC(=O)O)C(=O)N[C@@H](Cc1ccccc1)C(=O)N[C@H](C(=O)N[C@@H](C)C(=O)N[C@@H](Cc1c[nH]c2ccccc12)C(=O)N[C@@H](CC(C)C)C(=O)N[C@@H](CCC(=O)O)C(=O)N[C@@H](C)C(=O)NCC(=O)NCC(=O)O)C(C)C)C(=O)O	measured: Diarrhoea	humans CrCl below 20 mL/min	subcutaneous, 100 µg single dose	treatment-related adverse events	0%
